Measured values of several laboratories.
Lines come from different studies, so protocols differ. Numbers after ± are the reported error.

Structure (SMILES)	tested on	test	test system	setting	scale	quantity	result
COC1CN([C@H]2CC[C@H]([C@@]3(C)Oc4c(Cl)cc(C(=O)NCc5c(SC)cc(C)[nH]c5=O)c(C)c4O3)CC2)C1		RNA-seq, item: PLEKHA7 mouse homolog	mouse, HT-1376 xenograft, whole blood	dose not given	baseline: vehicle	log2 fold change	0.893
Nc1ncc(-c2cc(-c3cnn(CC(F)(F)F)c3)ncc2F)nc1C(=O)NC1CNCC(F)C1 (stereo not drawn)	WEE1	KINOMEscan		1 µM	baseline: DMSO control	remaining binding	86%
CNS(=O)(=O)Nc1nccc(Cc2c(C)c3ccc(Oc4ncccc4F)cc3oc2=O)c1F	CCK-81	cell viability, CellTiter-Glo		7 days		IC50	647 nM
CC(=O)[O-].O.O.[O-]c1ccc(Br)cc1C=NCCN1CCOCC1.[Zn+2]		DPPH radical scavenging		120 µM		inhibition	26.7%
CCN(CC)CC(=O)Nc1cccc(-n2cc(-c3ccc4ccc(-c5cn(-c6cccc(NC(=O)CN(CC)CC)c6)nn5)cc4c3)nn2)c1	RCC4	PCR angiogenesis array, item: CXCL5		5 x IC50, 2 h, normoxia	baseline: untreated	fold regulation	1.06
COc1cc(O)ccc1CCC(c1ccc(O)cc1)c1cc2c(c(C)c1O)OC(c1ccc(O)cc1)CC2 (mixture of isomers)			human blood	30 µM, together with: A23187		PGD2 level	8 ± 6 pg/mL
C=CC(=O)Nc1cccc(Cn2ncc3cnc(Nc4cnn(CCOC)c4)nc32)c1	PHKG1 human	binding, KINOMEscan		100 nM	lower = stronger binding	percent of control	100%
CN1CCCNC(=O)c2cccc(c2)C(=O)NCCCN(C)CCCNc2cccc3c2C(=O)c2cccc(c2C3=O)NCCC1	SAS	RNA-Seq, item: SSR2 mRNA		1 µM, 6 h	baseline: untreated cells	log2 fold change	-0.701
Cc1ncsc1-c1ccc(C(C)NC(=O)C2CC(O)CN2C(=O)C(NC(=O)CCCCCCCCCCN2CCCC(Nc3ncc(Cl)c(Nc4ccccc4S(=O)(=O)C(C)C)n3)C2)C(C)(C)C)cc1 (stereo not drawn)	22Rv1	RNA-seq, item: MAU2 mRNA		concentration not given	baseline: DMSO	log2 fold change	-1.52
